Experimental data of several laboratories.
A part holds a random share of what one study measured.

Sample 1
Target: Centromere-binding protein 1, full length, His-tagged (CBF1, Saccharomyces cerevisiae, UniProt P17106, residues 1-351)
UniProt P17106, sequence (whole entry, looked up): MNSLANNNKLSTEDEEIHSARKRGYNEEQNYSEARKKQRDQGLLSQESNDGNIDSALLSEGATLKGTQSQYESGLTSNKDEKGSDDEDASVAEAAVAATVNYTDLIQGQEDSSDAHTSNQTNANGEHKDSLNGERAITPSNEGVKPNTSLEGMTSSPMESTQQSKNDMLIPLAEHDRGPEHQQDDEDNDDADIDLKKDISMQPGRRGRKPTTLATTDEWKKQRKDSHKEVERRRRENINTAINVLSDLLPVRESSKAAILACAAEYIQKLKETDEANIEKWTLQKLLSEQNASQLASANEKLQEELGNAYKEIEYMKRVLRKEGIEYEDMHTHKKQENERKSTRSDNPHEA
Method: competition protein-binding microarray
Form: double-stranded DNA, one strand shown
Medium: in vitro
Concentration: 2 µM
Setting: whole 60-bp probe, lowest competitor level
With: Pho4 competitor, 0.05 µM
Reading: higher = stronger binding
Endpoint: fluorescence intensity
Constant ends, left off below: … GTCTTGATTCGCTTGACGCTGCTG
ACTACACTAACCGCCCATGTGTTGGATGGTGTAACT: 96.4 a.u.
CTTCAGTGTTTTTAGCACGTTTTAGAGCAGCAGGAT: 181 a.u.
TGCGCAACAACTTGCCGAGTGGGTGTATGTCTAGAA: 60.2 a.u.
TACCCTTGCACCTTCCACAACCATATTTTTGGTCTA: 50.7 a.u.
AAAGCGGTAATTTGTGCCGTGGGTGCAGATATCTAT: 68.6 a.u.
CAAGCCCCAAGTACCCACGTTGTTGAGGTGTTTTTT: 67 a.u.
TACAATGTCGAGCCTCTCGTGGGTAATCTGGAACAG: 97.1 a.u.
GAAATTTTACTGATTGGCGTGGGACAGTTTTTGTTA: 67.8 a.u.
GTCAGTATCTTCCATCACATGACAATCTTGTGCATC: 1210 a.u.
GATTCACTTGATATTCACGTGCAAAAACCATTAGTA: 1320 a.u.
TCATCCCATCCTCGGCACGCATTACCAGCACTCAAA: 66.5 a.u.
CTAACGAAGGTTTGCCGCGTGGGTGACAAGCCAAGT: 63.7 a.u.
AGTGGAACTAGTACCCACGTCAGCGGGCCTAGGCCC: 44.1 a.u.
TTGAACTGCTGGGATCGGATGACGTTTTGGAGGAAG: 68.7 a.u.
TCTGTAACTTAATCACACGTGCAAAGTCTCTTTTAC: 1330 a.u.
CTAGGGCACCTCCGTCACCTGGCTTTTCTTCAACTT: 71.1 a.u.
CTTCCTTCCAGAGCCCGCGTGCTAATGCAGAGTGGT: 82.3 a.u.
CATACCCAACCTTGAGGCGTGGGTGAAGATATTTGT: 63.9 a.u.
GACACCACTGACTTAACCGTGGGTATATTATATAAG: 67.2 a.u.
TGGAAAGCTTGATGACATGTGATAGCACACCATGCT: 457 a.u.
TCACTTTAACCACCATTTCTTTAAGCTAAAGTTTAG: 84.8 a.u.
GCTGCCTGCACCGACTGCGTGCGATCGTAATTGGTA: 66.1 a.u.

Sample 2
Target: RNA binding protein fox-1 homolog 2, RRM domain, GST-SBP tag (RBFOX2, Homo sapiens, UniProt O43251-10, residues 100-194)
Method: RNA Bind-n-Seq
Form: RNA
Medium: in vitro
Concentration: 365 nM
Setting: natural RNA segment, single round, ends assumed
Relative to: no-protein control
Reading: higher = stronger binding
Endpoint: RBNS enrichment (R)
Constant ends, left off below: GGGAGUUCUACAGUCCGACGAUC … UGGAAUUCUCGGGUGCCAA
Target sequence (chain): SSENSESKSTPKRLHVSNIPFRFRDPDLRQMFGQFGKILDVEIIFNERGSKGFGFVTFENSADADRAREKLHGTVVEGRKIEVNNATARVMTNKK
GGCUUCUUUCUGUACUUGCUGACUUCUGUCAUAUUUCUUUCCAGAUGUGUUUACAGGUCCCUGUAAGCAGUGUUAGGUCCAUAGGCUUUUAUGACUCCAGUCUGCAAGCA: 0.436
UGUGACCACAUCAGGGCCUUGAAUCUUUGUACCUGACAGACCUGGGACCUGGAGUUCGGGCAGAUGUGACAUCAAUAAAACUGCGUCUCACAUUUUAACCAUGUUUUCUG: 0.303
CCUUGAGAUUGUCUUGGCAUGGCCCAGCCCUGCCUCAUGGGAUGGACAAUGCAUGGGGUGGUCUUUAUUUUUCCCUUUCAAAUAAAACACUAGUCAGGUACCGUUUUAUC: 1.51
GCCACGUGCCAGGCCCGGGGCUGGCGGCUACUCAGCAGCCCUCCUCACCCCGUCUGGGGUUCAGCCCCUCCUCUGCCACCUCCCCUAUCCACCCAGCCCAUUCUCUCUCC: 0.545
CCACCACCUUGGAUGCAGCCACCACCACCACCGAUGAACCAGGGCCCCCACCCACCUGGGCACCAUGGCCCUCCUCCAAUGGGUAAGUCAGUACCUGGGAAGUACGCCUG: 0.428
GGGAUGAAAAUUGCUUUGAUAUAUAGCAGGUAUAUUGAAGCUAUUCCAUAGCACUUAACUGUAGUGAAUACUGUGUCACCAGUUCUGAAAUCAAUUUAAUGUUUAAUGCA: 4
UAUUAUUUUGAAUCCAAAUGAAAGCUAUACUGUUUGCUUUCAAUGGUGGCAAAAACUUGCAAAAAGCAGAUAUACUUUUGCUAAUUUAAGUUGAAGUACUAUGAAUACAA: 0.41
AACCCAUUGCCCCGUUGACCUGACCUGGAAGAAGACUGUCAGCAAAAGGAAAAUACCAGAAUAUCUGGAAAGCUUGAAGUGUAAGAUGGGAUCUCGUUGGGGAAUUGGAU: 0.995
UCUAGAGUCCACUGAGUCACAAUGGGGGCACAUGCUCAUGACUGUGUCACUUAGGGGCGGUCCCCACACUGAGUGAGAAAGGGGCAUCUGCCCUGUUGCUACUGUGAGGA: 0.293
UCUGGACCUAAUUGGGCAUUGGGCUUUAGUGAGACCACAGACCAGGCCCGUCUCUCCUGUAGGCUUUUAAUUCAAUGGCAACUCUAUUUCAAAGAAUAAAAGCCUUUGGA: 0.328
GAAUUAUGGAACAUUGUCUGUACCUUCUGACUUUAUGUAAGCAGUCCAUUCCAUUGCUUGUUUCUCAAAGCAGCGAGAUACCUGUCUGAGCUGCAGGAGGCAGGGGCAGC: 0.441
GGUUUUGAAAACUUUUUUUUAUUUUGUCACAGACCUGUUGUCAUAGUUGAAAUGAUGUUUAUUGUAGAUGGUAUUUGAACUUAUUCUUCUGGAAAUAGUUCAUCAAGUAU: 0.874

Sample 3
Target: Fragile X messenger ribonucleoprotein 1, C-terminal low-complexity region (Fmr1, Mus musculus, UniProt P35922)
Method: RNA Bind-n-Seq
Form: RNA
Medium: in vitro
Concentration: 200 nM
Setting: whole 134-nt RNA, ends assumed
With: 150 mM KCl
Relative to: input library
Reading: higher = stronger binding
Endpoint: log2 enrichment
Constant ends, left off below: GGGAGUUCUACAGUCCGACGAUC … UGGAAUUCUCGGGUGUCAAGG
UGUGCUACACAUCGUAUGUACCGAAUCGGGGAAAAAAAGGGGAAAAAGGGGUUUUUUUGGGGAAAGUAUUAUGUUACGCCGUUCGGAUCU: 0.167
CACAGACAACACGCACCCACACAGAAACAGAGGGAAGGGGUUGGGAUGGGGACAGGGUGCACAGCAGGGCGGGGUAGGACCCCAGCCCCU: 1.22
AGUCCUGUGCUACACAUCGUAUGUACCGAAUCAAACCCAAACCCCCAAAUUUUUAAAAAAGUAUUAUGUUACGCCGUUCGGAUCUGCACU: -0.18
GUCCUGUGCUACACAUCGUAUGUACCGAAUCGGGCCCCCCGGGCCCCCCGGCCCCCCGGAAAGUAUUAUGUUACGCCGUUCGGAUCUGCA: -0.31
UGUCCAGCUCUGAAGGGCAAAGUGCAGAAGAUCCUAAUCUGGAAGUGGGGUCAGCCACCAUCUCCCACACCAGUGCCUCGGCCUCCAGAU: -0.064
CCUGUGCUACACAUCGUAUGUACCGAAUCGGGAAAAAAAGGGAAAAAAAGGGAAAAAAAGGAAAGUAUUAUGUUACGCCGUUCGGAUCUG: -1.02
UCAAGUCCUGUGCUACACAUCGUAUGUACCGAAUCGGUUUGGAGGAAAAAAAGGAAAGUAUUAUGUUACGCCGUUCGGAUCUGCACUUCC: -0.5
AAGUCCUGUGCUACACAUCGUAUGUACCGAAUCGGGUUUGGGAAAAAGGGAAAGGGAAAGUAUUAUGUUACGCCGUUCGGAUCUGCACUU: 0.632
UCUUCAGAGGCCCCACAGUAUCAAAUAUCCGCCUGGCUGGAUUAGAGUAUGUUCUGCACUUCACUGCACUGAAUGGGAAGAUUUACUUUC: 0.00954
CAAGUCCUGUGCUACACAUCGUAUGUACCGAAUCGGUUUUGGGUUUUGGUUUUGGAAAGUAUUAUGUUACGCCGUUCGGAUCUGCACUUC: -0.633
CACAGACAACACGCACCCACACAGACACAGAGGGAAGGGGUUGGGAUGGGGACAGGGUGCACAGCAGGGCGGGGUAGGAUCCCAGCCCCU: 1.22
UCCUGUGCUACACAUCGUAUGUACCGAAUCGGGGUUUUUGGGGAAAGGGGAAAAAGGGGAAAGUAUUAUGUUACGCCGUUCGGAUCUGCA: 0.537
UAGUCCAGCAUCAAGAUUCGCCGGCCUGGAUACAAAUCAGCGACUUACAGCUUUAGCUGAAGACAGACCGUUAUUUGAUGGACCUAGUAG: -1.61
UGGCCCUGGUGGCAUGCGGGGAGGAAGAGGUGGCCUCAUGGAUCGUGGUGGUCCCGGUGGAAUGUUCAGAGGUGGCAGUGGUGGAGACAG: -0.0426

Sample 4
Target: Histone acetyltransferase KAT6A, winged helix 1, GST fusion (KAT6A, Homo sapiens, UniProt Q92794, residues 1-85)
Method: protein binding microarray
Form: double-stranded DNA, one strand shown
Medium: in vitro
Concentration: not given
Setting: 8-mer, flanks averaged, mean of 2 arrays, mostly near background
Relative to: not given
Reading: higher = stronger binding
Endpoint: E-score
Construct (chain): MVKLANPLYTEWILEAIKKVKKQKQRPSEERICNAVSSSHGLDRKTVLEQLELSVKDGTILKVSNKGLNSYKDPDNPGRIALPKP
CGCTGCAA: 0.204
AATATGGT: -0.146
GACACTGA: -0.0889
CACCCGGG: 0.206
CGGTAGTA: 0.122
ATGACCCA: -0.144
AGCTCGGA: -0.0682
TGACTGAA: -0.103
AGGTCCGG: 0.0781
CAGGAGTC: -0.11
AGTAGGGC: 0.0147
TCCACTCA: -0.227
ACCGCTAC: 0.33
GCTGCAAA: -0.109
ATGGAGGG: -0.155
CTGTAAGA: -0.101
ATATCCTC: -0.268
GATAGATA: -0.131
CCACTGTC: -0.239
GGGTTAAC: 0.0892
ACCAATAA: -0.0322
TATACGAA: -0.233
ACATTGTA: -0.115
AGAGCTCT: -0.084
CCACCAAG: -0.115

A few entries again (sample 1):
CAAGCCCCAAGTACCCACGTTGTTGAGGTGTTTTTT: 67 a.u.
GAAATTTTACTGATTGGCGTGGGACAGTTTTTGTTA: 67.8 a.u.
CTTCCTTCCAGAGCCCGCGTGCTAATGCAGAGTGGT: 82.3 a.u.
TGGAAAGCTTGATGACATGTGATAGCACACCATGCT: 457 a.u.
AGTGGAACTAGTACCCACGTCAGCGGGCCTAGGCCC: 44.1 a.u.
GATTCACTTGATATTCACGTGCAAAAACCATTAGTA: 1320 a.u.
GACACCACTGACTTAACCGTGGGTATATTATATAAG: 67.2 a.u.
ACTACACTAACCGCCCATGTGTTGGATGGTGTAACT: 96.4 a.u.
CTTCAGTGTTTTTAGCACGTTTTAGAGCAGCAGGAT: 181 a.u.
TTGAACTGCTGGGATCGGATGACGTTTTGGAGGAAG: 68.7 a.u.
